Experimental data of several laboratories.
Each numbered part is a random draw from the data of one study; scales do not carry over between parts. Changes are numbered by the printed parent chain.

Sample 1 — target: CCND2, cyclin fold, Cln2 fusion (human); method: yeast growth competition, sequencing; matrix: yeast; setting: weak parent motif; relative to: not given; direction: higher = stronger binding
Starting sequence: DBF4B docking peptide (human); LGYLYLLLTQSLW; partner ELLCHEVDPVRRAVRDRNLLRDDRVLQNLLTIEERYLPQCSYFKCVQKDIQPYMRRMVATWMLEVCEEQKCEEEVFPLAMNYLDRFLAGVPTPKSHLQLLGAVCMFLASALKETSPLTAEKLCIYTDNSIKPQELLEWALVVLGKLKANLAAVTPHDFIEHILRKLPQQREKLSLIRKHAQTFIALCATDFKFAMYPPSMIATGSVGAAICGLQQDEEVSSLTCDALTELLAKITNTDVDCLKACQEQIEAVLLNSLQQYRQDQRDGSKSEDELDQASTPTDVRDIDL
Under “normalised enrichment score”, `L12A` is recorded as -0.562.
For `L7A`, “normalised enrichment score” read -0.668.
`S11A`: “normalised enrichment score” 0.123.
`L4A` — result for “normalised enrichment score”: -0.155.
`T9A`: “normalised enrichment score” -0.0109.
`W13A` — result for “normalised enrichment score”: -0.568.

Sample 2 — method: RNA Bind-n-Seq; form: RNA; matrix: in vitro; concentration: 365 nM; relative to: no-protein control; direction: higher = stronger binding
Target: RNA binding protein fox-1 homolog 2, RRM domain, GST-SBP tag (RBFOX2, Homo sapiens, UniProt O43251-10, residues 100-194)
Setting: natural RNA segment, single round, ends assumed
Target sequence (chain): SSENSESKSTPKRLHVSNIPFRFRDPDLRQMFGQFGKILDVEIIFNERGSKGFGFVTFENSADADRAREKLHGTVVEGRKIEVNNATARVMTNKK
`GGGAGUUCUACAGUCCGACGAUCCCACUUGGUUUUUGACUGAAGGGGAAGUGUAGAAAUAUAUUGAUUUGUGAUUUCUGGUGUCACCUGUGUUACCAAAAAUCAAAACAAAUCUUUUUUAUUUUUUAUUAUUAUGGAAUUCUCGGGUGCCAA` — result for “RBNS enrichment (R)”: 0.332.
`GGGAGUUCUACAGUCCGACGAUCCCAAAAAAUGCAUGAACUCCUGCUUUUCAAUCUGAUUACCUCAAACUGAAAAGCAGGUGAAAGGAGGAAUAUUUCAGUGUGUUUUUACAUCUGAAUCCAAGGGAUCCAAGUGGAAUUCUCGGGUGCCAA`: “RBNS enrichment (R)” 16.1.
`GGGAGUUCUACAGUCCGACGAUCUGAGAUUUUUCAAGCUGUGCUUUGUGUGUGUGCCAGUAGACUUACGCAAGGACAGGGUACAAACUUAGCUGGAAGUCUGCCCAGGCUGAAUGAUCUCUUCCCUAGAGUUGUGGAAUUCUCGGGUGCCAA`: “RBNS enrichment (R)” 0.55.
Under “RBNS enrichment (R)”, `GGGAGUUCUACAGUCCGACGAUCCAGCUUAAAAUCCAAAGUGUCAUAUUUACUGGUCCUGGAGACAAACUUGUUCAAAAGAACAUCAACGUGCAAUGUUUUAAGGUCUAUCUUAAGAAGCCCUGGCCAAAUUUUGGAAUUCUCGGGUGCCAA` is recorded as 0.344.
`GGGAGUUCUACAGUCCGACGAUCGCUGUGUGUGUCCAGGCACGGUUCCUUACGCCCCAUGUGUGCUGUGUGUGUCCUGCCUGUAUAUGUGGCUUCCUCUGAUGCUGACAAGGUGGGGAACAAUCCUUGCCAGAUGGAAUUCUCGGGUGCCAA`: “RBNS enrichment (R)” 0.437.
`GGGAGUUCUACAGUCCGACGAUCAAUCUUCACUUAGCCUCAGACUUCAGGUGCAUUGACCCAUCCAUUAGUAAAGCUGCUUUGAACCAUCUUCUGGCCAUUGUGUCUUUUAUCUACUGGGAAUUGGAAUGGUGUGGAAUUCUCGGGUGCCAA` — result for “RBNS enrichment (R)”: 0.291.

Sample 3 — method: DHFR PCA, deep sequencing; matrix: yeast; together with: (+)-ABA 2500 µM; relative to: wild-type fitted maximum; direction: higher = stronger binding
Target: ABI1, truncated, D143A, DHFR fusion (Arabidopsis thaliana)
Setting: methotrexate growth selection, single substitutions
Starting sequence: PYL1, truncated, DHFR fusion (Arabidopsis thaliana); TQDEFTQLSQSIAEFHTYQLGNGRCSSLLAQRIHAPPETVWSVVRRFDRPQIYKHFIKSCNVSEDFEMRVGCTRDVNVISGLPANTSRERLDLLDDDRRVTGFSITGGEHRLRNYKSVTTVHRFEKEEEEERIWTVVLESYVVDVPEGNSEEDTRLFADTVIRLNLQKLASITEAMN; partner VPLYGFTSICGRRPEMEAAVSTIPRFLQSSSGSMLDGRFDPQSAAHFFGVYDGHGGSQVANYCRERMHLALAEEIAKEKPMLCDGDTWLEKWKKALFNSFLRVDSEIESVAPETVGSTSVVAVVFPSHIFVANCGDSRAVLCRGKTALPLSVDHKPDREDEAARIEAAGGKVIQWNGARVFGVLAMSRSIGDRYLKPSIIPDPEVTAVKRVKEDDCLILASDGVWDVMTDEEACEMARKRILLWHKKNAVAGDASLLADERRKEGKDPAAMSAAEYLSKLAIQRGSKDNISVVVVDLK
`K126S` — result for “relative binding score”: 104%.
Under “relative binding score”, `F124P` is recorded as 95.9%.
`N61W`: “relative binding score” 95.9%.

Single results of other studies
For `PhoQ, residues 284 288 289 292 302 303 TSTLRA`, the fold induction was 11.3 (PhoP, residues 12 14 15 18 19 NQAHL (Escherichia coli, UniProt P23836); Sort-seq, item: YFP reporter; E. coli; PhoQ-PhoP variant library, together with: 10 µM Mg2+; relative to: high Mg2+ state, higher = stronger signaling).

Some of these lines once more (sample 2):
`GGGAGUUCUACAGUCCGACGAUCGCUGUGUGUGUCCAGGCACGGUUCCUUACGCCCCAUGUGUGCUGUGUGUGUCCUGCCUGUAUAUGUGGCUUCCUCUGAUGCUGACAAGGUGGGGAACAAUCCUUGCCAGAUGGAAUUCUCGGGUGCCAA`: “RBNS enrichment (R)” 0.437.
`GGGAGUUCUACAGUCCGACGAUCAAUCUUCACUUAGCCUCAGACUUCAGGUGCAUUGACCCAUCCAUUAGUAAAGCUGCUUUGAACCAUCUUCUGGCCAUUGUGUCUUUUAUCUACUGGGAAUUGGAAUGGUGUGGAAUUCUCGGGUGCCAA` — result for “RBNS enrichment (R)”: 0.291.
